# Experimental data of several laboratories.
# Each numbered part is a random draw from the data of one study; scales do not carry over between parts.

# Study 1
# Target: Hepatocyte nuclear factor 3-alpha (Foxa1, Mus musculus, UniProt P35582, residues 1-468, full length assumed)
# Sequence of UniProt P35582 (whole entry, looked up): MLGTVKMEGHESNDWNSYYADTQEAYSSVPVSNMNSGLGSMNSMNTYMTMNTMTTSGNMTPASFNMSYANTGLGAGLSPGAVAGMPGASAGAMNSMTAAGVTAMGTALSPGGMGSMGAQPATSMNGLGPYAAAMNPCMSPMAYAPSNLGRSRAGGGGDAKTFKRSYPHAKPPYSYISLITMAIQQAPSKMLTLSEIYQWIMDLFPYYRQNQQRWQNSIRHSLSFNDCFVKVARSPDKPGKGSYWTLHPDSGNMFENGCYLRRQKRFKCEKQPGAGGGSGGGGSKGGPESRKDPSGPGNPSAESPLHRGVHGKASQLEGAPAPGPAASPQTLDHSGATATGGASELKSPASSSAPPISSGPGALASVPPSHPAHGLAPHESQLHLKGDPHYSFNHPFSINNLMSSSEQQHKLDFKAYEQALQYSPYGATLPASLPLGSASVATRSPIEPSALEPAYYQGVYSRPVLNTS
# Technique: EMSA with sequencing
# Molecule type: double-stranded DNA, one strand shown
# Sample: in vitro
# Concentration: 10 and 20 nM
# Notes: whole designed probe, mean of two concentrations, ends assumed
# Reference: negative control set to 0
# Reading: higher = stronger binding
# All sequences stand within: GTGAGCGGTGCCCATTGATGGGGAAC … TTTCACTGGGATCGTGGGGAC
Oligonucleotide,normalised bound fraction [ratio]
AATCCAGCTACCTATCTTCAGTTCCTTGGCCTTCAGCTGGCAGTGAAACAGACACATCAGCTTTAAGACTGGCAGCCAAATAGTTAACGATCTGTAATCTTACAATTACGCAAGTAGAGAGTTCCTGTTCAAACAGACTGGATGAAAGCCCTTCCATAAAGAACCCTTTAGGTGATGATGCTAAAATTATTTT,0.134
TTCCTTCTGCAGCTTTCCTCCCCAAACTCCACTGGTGCTCATGTTGACTCATCTGTCATTTTCACTTCCTTTCTGGCAGAGTAGCTGAGCTGAGCAAACAACAGAGCAGGTGGACAATAGTCTGGCCTCTGCATGAAGCCACCAGTTCACAGGAAATACAGGGGGCAGAGGAACATGTTAAGTGGCACCTCAG,0.317
TAATCAGCTATTCCTCTTTAAATGGGGACATCACATCTTTCTCTTGCAGATGTCACAGACAAATGAAAGTTTGTATCCTGCATTACAAGTCATGTTTACTTAGGATTTTTACAAAATAGCTATTTAAAAAAAAACTTAGAGAATAACAATGCACATTGCACAGAATTTTAGCAGATAATTTTCTGTGCAGTAG,0.389
AACATACATATGGTAAAAAATTGAAAAGAAACAAAAGATTATGTAACAGAAATGAATCTGCCACATACTCCAGATCCCACTGTCATTTCTCAGAGTAATCTTGAATGGAAGTATACCATACATGTTGTTGTATACTGTGTTTGCTGAAAACAGAAAGTATCCTGGTGCTCTGCCTAATTACAGCTGCACAGTA,0.0343
TAAACAAAGCTGGTCGCCCAATGAAGAGGCGGCGGGGGCGGGCGCTGGGCCGGGGAGGCCGGGGGCGGAGCCGGGGGCGGGGCGACCGGGCGGAGATTACAGACCGGCACATGGCGCTTCCGGTTGACGTTGCTGACAGCTAGTGAGGCTTTAGCCCGCTTCGAGCGCCCGGGGGCGGTAAGGCGCGATCATA,0.474
TCTCCCCGTGTGGCATCAAGGCGGGCTCCCTATAGGAGCTGGTGTGGACGTCCGGGCGTGGGGTTAGGGCGGATGCGGGGATCGCGGGGCGGGAGATGACATTGTGCTCTCACCAGGCGGATCGCCCCGACCCTCACTCCTGGCGTCTGAGTCTCTGGCGTAGCCCATGCTGAGTGGGCGGCTGGTCCTGGGT,-0.0798
CTAGTTCCAGTCTTAGCATGACAATTTCTTCCTGCAACGTACTATTTTCATGCAAGAGGTCTTTTTCTTTCTTATAACTAAGAGAAAGCTAAGTAATCTAAGGGAACTTTTAGTTAGCACTCAATAGATTGATATATCATGATTTCTTCTGAAATTAAAAAATAACATCTGTATTTGTATAATGAAAGAATCC,0.163
TAAATGCTAAAGCTGAAATGAACAGGGATGGCAGCTGCTCAGGGAACAATGAAGTGAAGTCAATCCTGAATTCCAACTTGAAAATGTTTAAAGTAATCTAGCAGGATCTAGGAGGTCATCTAGGAGGTCATTTTAAGGAAATGATAAGGAAAGACAAAAGGAAAGAAGAGCAAAACAGCTTTAGAAGTTAGTT,-0.051

# Study 2
# Target: Interferon regulatory factor 7, full length, phosphomimetic (IRF7, Homo sapiens, UniProt Q92985, residues 1-503, S101K/S471D/S472D/S475D/S476D/S477D/S483D/S484D/S487D)
# Technique: protein-binding microarray
# Molecule type: double-stranded DNA, one strand shown
# Sample: in vitro
# Concentration: 250 nM
# Notes: 60-bp whole probe
# Together with: salmon DNA 0.4 mg/ml
# Reference: random background probes
# Reading: higher = stronger binding
# All sequences stand within: GCCTAGCAC … GTCTTGATTCGCTTGACGCTGCTG
# Target sequence (chain): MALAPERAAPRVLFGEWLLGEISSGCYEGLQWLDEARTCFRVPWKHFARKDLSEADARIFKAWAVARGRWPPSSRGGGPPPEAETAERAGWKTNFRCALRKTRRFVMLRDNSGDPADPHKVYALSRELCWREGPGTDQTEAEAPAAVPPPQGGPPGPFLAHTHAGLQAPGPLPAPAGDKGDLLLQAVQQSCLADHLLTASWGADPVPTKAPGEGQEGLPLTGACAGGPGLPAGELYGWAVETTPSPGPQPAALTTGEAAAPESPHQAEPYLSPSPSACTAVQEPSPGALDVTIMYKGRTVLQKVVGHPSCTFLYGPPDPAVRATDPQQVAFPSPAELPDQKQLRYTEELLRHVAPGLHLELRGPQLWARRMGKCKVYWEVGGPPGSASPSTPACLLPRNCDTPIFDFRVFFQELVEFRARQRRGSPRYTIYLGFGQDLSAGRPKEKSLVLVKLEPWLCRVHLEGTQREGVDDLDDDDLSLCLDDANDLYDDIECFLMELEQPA
Oligonucleotide,log fluorescence
TTAGATTCCAGTTTCGATCAGTGCTAG,6.37 z-score
GTCGAACTGAGACTGGAGACGTGCTAG,0.129 z-score
TTAGGACTGGACACGGGGTTAGTGCTA,-0.263 z-score
GACGGATTCGGTTTCGGGACGTGCTAG,8.73 z-score
GACGAACTGGGGACTCGAGACGTGCTA,-0.00146 z-score
TTAGGTCACGGTCTCGGTTAGTGCTAG,1.69 z-score
TACGGTATCGGTTTCGGGACGTGCTAG,6.93 z-score
TTAGGTCTCCTTCTCATTTAGTGCTAG,0.744 z-score
TCAGGTTCCGGTTTCGGTTAGTGCTAG,11.2 z-score
TAATTTTTTAGCTTCTCAATGTGCTAG,-0.0669 z-score
TATTACCTCATCTTCCTCTGCGTGCTA,1.05 z-score
TTAAGTTTCGACTATCGGTTAGTGCTA,6.13 z-score
CGCCCTCTCAACCATCCTGGGGTGCTA,0.25 z-score
TTAGGTTTCGGGACTGGGCTAGTGCTA,3.24 z-score
CCTACCGCCCTTACCGCCGCGTGCTAG,0.253 z-score
TTAGGTTTCGACTATTGGTTAGTGCTA,4.62 z-score
TTAGGTTTCGAACTGGGTTAGTGCTAG,4.35 z-score
TTAGGTATCCTACCGCTTTAGTGCTAG,-0.161 z-score
GGGCATTTTTTTATCAATCAGTGCTAG,-0.177 z-score
TTAGGACTGGGTTTCGGTTAGTGCTAG,7 z-score
GGCGGTTTCGGTTCCGGGACGTGCTAG,12 z-score
TCATTTTCCTAATTGAAACTGTGCTAG,3.69 z-score

# Study 3
# Target: Histone acetyltransferase KAT6A, winged helix 1, GST fusion (KAT6A, Homo sapiens, UniProt Q92794, residues 1-85)
# Technique: protein binding microarray
# Molecule type: double-stranded DNA, one strand shown
# Sample: in vitro
# Concentration: not given
# Notes: 8-mer, flanks averaged, mean of 2 arrays, mostly near background
# Reference: not given
# Reading: higher = stronger binding
# Target sequence (chain): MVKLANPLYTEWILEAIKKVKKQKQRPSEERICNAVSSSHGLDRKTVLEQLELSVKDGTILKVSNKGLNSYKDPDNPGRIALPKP
Oligonucleotide,E-score
AATCACGA,-0.109
CGGACCTA,0.0992
ACGTAGCA,-0.132
ATAAAGGC,-0.153
GTCCTCCA,0.0451
CCATACTC,-0.102
CAAGGCCA,-0.0547
ATAGGGTG,-0.211
CTCACACC,-0.0836
ATCAGTCG,-0.152
AAGTATTC,-0.204
CAACGCGA,0.121
ACCCTCTG,-0.178
ATAGGCCG,0.231
AGATCATG,-0.266
CTACCTTA,-0.0558
ATGTAATA,0.144
AACAGCCA,-0.104
GAAGGCTC,-0.156
CGCTCCGC,0.351
GTGCTCTA,-0.0713
CCTTCGCA,-0.0712
AGGTACTA,-0.173
AAAGGGTA,-0.0361
CCTATGGA,-0.0947

# Study 4
# Target: RNA binding protein fox-1 homolog 2, RRM domain, GST-SBP tag (RBFOX2, Homo sapiens, UniProt O43251-10, residues 100-194)
# Technique: RNA Bind-n-Seq
# Molecule type: RNA
# Sample: in vitro
# Concentration: 365 nM
# Notes: natural RNA segment, single round, ends assumed
# Reference: no-protein control
# Reading: higher = stronger binding
# All sequences stand within: GGGAGUUCUACAGUCCGACGAUC … UGGAAUUCUCGGGUGCCAA
# Target sequence (chain): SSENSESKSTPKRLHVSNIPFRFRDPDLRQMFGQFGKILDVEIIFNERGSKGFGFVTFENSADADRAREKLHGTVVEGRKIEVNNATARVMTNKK
Oligonucleotide,RBNS enrichment (R)
UUGAAUGAGACGGCACCCAGUAAUCUUUGGAAACAUCAGAAGCUGCUCUCCAUUGACCUGGACAAAGUAGUGUUACCCAACUUUCGAUCCAAUCGCCCUCAAGUGAGACC,0.448
UGACACCCACAUCCACUUUAGCCAUGUGUGACUCCCUAACAUUCCAAUCCUCUACCAUCCUGCAGCUGAAAUGGGAACACUGGCUGCCUCUCUAAACCUAAACUCUUGGA,0.835
GAACCUCCAACAUGCCGAGCAGACGCAGGCCACAUUGCUCGGGGAACAGGACACCAGGGCGCUGUGCUAGCGGCCCGCAGACUUCACUUCUGGCUCCUGUGAGGGCACUG,0.566
CUAGCUUCAAAUGAUCCUCUCACCUCGGCCUCCCAAAAUCCUGGGAUUCCAGGCGUCAGCCACUGCUCUCGGCCCUCUUACACCAUUUUGUUUGAUUGUCUAGUCCCUGU,0.261
UUUGCCUUCAAAAAUGUGCUGCCUAGAAACAGACCUGCAUUCAACCAACUGUAAUGCAGGAUUGGACCAUGAAUGAUAUGCUAGAAUAGAAGAAAGAGAAGUGUUUUUUU,0.528
UAUUUUUCUUCCAAACUUCAUAUAUGUCUAUCAGGUAAUAAUAGGCUUGAAAAUUGAUAUCCUGUGGUGCUAAAGUACAGUAGAAAGAGAGGAGAAGUGUAUACAUGUUU,0.5
UCUGCACACUCAAAGGCUAAACUGGUGUCAGUCCUUUUUUCCUUUGUUCCAAAUAAAAGAUUAAACCAAUGGCCUUAGGGUGUCUUUUGGACCAGGUUGAGGGGCAGGGG,0.402
AUUCGUCACCGUCUUUGGGCUGAAAAAGAAACCCUUCUGAUUACCUUCAUGACGGGAACCUAAGGACGAAGCCUACAGGGGCAAGGGCCGCUUCGUAUUCCUGGAAGAAG,0.586
UUCCUGGGACUGGCAGCUGGGCCUCCUGGGUGCCAGUCCAUCUCAAGUGCCAUAUUCUGUGAUCACGGAUGUUGGCUCCCCCUCGCCCUAUGCAAGCAAACACACUCUCA,0.864
CCCAUCUCGCUCAGCACAGGGUUUCUGUGGGAUGAGUUUGAUUCUCUUGUUCUCACUGCUGAACUGGUGUUUAAAAUUCUUCGCAGGUCAGAAGUUUGGGAACUCAAAAG,0.367
UUUGGGUUUCCUUGUGAAGUUGGAGGGAAGUUUAUAAUAGCCUAACACUACCCCACCCCCAACUAGGAGGAACCUCUGUUUUCAAGAGAGAUGCCUGUCCUGUGCUUGGA,0.545
CCAUAUUGACCUUAGUCUUCUUGACUAAAAGGCCAGCUGGCACCUCUGUCUCAUGUUCGUGCAGAUUAUUACAGACACCUCUUUCCUUUAGCCAGAGAAUGGUUCAAAUG,0.226

# Excerpt of the above (study 3):
Oligonucleotide,E-score
AGATCATG,-0.266
ATCAGTCG,-0.152
CCTATGGA,-0.0947
GAAGGCTC,-0.156
CGCTCCGC,0.351
